Results of several laboratories.
Every numbered part comes from another study and shows a few of its results, in no order.
Sequence of UniProt Q96RR4 (whole entry, looked up): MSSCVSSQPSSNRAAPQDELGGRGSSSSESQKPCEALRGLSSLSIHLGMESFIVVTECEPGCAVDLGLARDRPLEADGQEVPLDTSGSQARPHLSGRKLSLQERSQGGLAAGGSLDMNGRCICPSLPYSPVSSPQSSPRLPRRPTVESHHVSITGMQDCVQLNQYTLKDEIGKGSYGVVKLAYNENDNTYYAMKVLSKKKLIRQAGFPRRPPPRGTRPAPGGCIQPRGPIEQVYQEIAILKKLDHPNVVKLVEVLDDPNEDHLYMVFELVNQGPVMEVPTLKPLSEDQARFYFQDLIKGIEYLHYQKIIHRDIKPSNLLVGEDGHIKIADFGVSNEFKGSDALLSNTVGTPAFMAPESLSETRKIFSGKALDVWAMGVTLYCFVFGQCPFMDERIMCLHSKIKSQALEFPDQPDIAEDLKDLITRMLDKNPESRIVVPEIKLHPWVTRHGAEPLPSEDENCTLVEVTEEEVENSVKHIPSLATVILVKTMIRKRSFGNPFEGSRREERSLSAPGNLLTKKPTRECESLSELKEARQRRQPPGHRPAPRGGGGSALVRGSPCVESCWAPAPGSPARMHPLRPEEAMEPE
Sequence of UniProt O75417 (whole entry, unmodified, looked up): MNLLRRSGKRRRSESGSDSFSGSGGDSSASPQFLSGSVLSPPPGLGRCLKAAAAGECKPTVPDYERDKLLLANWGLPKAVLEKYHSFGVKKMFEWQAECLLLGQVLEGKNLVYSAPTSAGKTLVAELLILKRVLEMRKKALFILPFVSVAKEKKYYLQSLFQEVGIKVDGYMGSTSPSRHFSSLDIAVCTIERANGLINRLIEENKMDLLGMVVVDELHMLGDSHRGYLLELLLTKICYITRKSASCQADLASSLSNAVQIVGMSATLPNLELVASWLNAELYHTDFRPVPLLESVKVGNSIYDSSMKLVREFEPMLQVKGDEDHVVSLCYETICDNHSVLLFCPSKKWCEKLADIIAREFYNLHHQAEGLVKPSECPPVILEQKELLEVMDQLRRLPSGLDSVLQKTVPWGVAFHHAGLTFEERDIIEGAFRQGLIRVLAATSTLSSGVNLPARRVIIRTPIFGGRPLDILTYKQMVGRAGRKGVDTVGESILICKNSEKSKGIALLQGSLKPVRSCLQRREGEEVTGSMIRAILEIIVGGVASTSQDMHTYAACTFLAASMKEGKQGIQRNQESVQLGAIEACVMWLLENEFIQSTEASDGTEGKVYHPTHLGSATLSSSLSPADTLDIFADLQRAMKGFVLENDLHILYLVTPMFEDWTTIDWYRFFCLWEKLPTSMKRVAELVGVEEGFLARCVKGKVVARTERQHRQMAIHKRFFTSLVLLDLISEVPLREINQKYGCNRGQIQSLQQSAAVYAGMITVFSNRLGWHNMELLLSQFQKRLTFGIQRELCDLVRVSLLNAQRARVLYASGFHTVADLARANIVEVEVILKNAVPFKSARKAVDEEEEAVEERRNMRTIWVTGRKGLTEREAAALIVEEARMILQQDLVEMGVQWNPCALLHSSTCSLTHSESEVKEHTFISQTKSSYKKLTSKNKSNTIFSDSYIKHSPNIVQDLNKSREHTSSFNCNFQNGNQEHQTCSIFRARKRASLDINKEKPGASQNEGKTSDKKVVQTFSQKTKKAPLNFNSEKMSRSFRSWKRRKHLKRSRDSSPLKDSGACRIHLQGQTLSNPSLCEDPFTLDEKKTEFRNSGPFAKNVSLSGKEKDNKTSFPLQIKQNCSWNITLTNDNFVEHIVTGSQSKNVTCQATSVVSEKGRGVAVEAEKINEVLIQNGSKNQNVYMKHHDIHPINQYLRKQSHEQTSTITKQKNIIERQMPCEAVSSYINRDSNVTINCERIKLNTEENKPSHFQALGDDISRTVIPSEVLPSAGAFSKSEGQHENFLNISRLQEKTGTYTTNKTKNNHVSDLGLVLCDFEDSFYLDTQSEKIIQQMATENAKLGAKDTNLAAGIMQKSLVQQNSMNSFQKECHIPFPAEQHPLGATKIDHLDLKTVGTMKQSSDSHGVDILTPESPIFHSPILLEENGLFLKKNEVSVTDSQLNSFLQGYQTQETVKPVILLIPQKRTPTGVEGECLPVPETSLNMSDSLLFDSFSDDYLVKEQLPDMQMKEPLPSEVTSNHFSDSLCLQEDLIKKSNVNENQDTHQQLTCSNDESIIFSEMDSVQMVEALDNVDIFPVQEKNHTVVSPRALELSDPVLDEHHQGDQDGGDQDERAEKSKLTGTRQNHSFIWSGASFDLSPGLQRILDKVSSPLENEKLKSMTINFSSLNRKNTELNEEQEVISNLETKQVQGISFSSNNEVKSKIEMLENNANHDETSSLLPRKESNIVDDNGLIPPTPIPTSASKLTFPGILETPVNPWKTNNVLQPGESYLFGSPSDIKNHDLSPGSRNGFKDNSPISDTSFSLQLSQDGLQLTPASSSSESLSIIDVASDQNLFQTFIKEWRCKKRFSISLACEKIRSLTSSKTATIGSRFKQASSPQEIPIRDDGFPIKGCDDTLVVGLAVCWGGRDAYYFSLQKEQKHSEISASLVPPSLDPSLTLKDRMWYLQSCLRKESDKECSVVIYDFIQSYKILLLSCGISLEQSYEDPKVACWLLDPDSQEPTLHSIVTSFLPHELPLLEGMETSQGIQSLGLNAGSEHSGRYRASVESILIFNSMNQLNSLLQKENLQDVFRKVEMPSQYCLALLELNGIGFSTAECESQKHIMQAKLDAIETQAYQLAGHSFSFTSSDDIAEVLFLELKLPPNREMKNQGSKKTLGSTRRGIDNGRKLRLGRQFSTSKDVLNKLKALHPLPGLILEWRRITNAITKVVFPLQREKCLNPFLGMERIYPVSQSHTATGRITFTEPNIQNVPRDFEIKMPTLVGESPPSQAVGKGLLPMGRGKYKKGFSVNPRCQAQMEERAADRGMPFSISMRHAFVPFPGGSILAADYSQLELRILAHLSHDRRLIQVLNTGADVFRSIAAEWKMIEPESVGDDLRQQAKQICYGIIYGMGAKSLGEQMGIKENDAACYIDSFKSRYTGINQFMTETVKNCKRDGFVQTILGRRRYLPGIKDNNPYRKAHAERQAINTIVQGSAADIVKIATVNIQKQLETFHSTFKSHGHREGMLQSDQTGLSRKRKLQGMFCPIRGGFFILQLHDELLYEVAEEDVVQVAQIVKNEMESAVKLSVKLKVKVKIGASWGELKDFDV

Block 1 — cell line: Huh-7; tested at: 10 µM; time: 24 h
SMILES	viability
CC(C)c1cccc(C(C)C)c1O	97.2%
C[C@]12CC[C@H]3[C@@H](CCC4=CC(=O)CC[C@@]43C)[C@@H]1CC[C@@H]2O	84.9%
COc1ccc(C(CN(C)C)C2(O)CCCCC2)cc1 (centres unmarked)	97.8%
C[C@@H]1O[C@@H](O[C@H]2C[C@@H](O)[C@]3(CO)[C@H]4[C@H](O)C[C@]5(C)[C@@H](C6=CC(=O)OC6)CC[C@]5(O)[C@@H]4CC[C@]3(O)C2)[C@H](O)[C@H](O)[C@H]1O	54.8%

Further values, each from its own experiment
Structure (SMILES)	tested on	test	test system	conditions	scale	endpoint	value
O=C1CCC(N2Cc3c(ccc4c3OCC43CCN(Cc4ccccc4)CC3)C2=O)C(=O)N1 (centres unmarked)		metabolic stability	mouse, liver microsomes	1 µM		scaled CLint	78.6 mL/min/kg
COC(=O)[C@]1(O)C[C@@H]2O[C@@]1(C)n1c3ccccc3c3c4c(c5c6ccccc6n2c5c31)C(=O)NC4	CAMKK2 (Homo sapiens, UniProt Q96RR4)	enzyme activity, inhibitor		0.5 µM	reference: control	remaining activity	6.55%
N[C@@H]1C[C@H]1c1ccccc1	DNA polymerase theta, ATPase domain (POLQ, Homo sapiens, UniProt O75417)	inhibitor		77 µM		remaining activity	106%
O=C(NCc1ncc(C(F)(F)F)cc1Cl)c1ccc2c(c1)C1(CCS(=O)(=O)CC1)[C@@H](C1CC1)N2S(=O)(=O)c1ccc(F)cc1	EGFR (Homo sapiens, UniProt P00533, A750P/del747-749)	cell-free assay, competition with immobilised ligand		1 µM		remaining binding	96%
